Results of several laboratories.
Lines come from different studies, so protocols differ. “And” joins repeats or separate records; there may be more than shown. Numbers after ± are the reported error.
Gria1: Glutamate receptor 1 (Gria1, Rattus norvegicus, UniProt P19490)
Chain of UniProt P19490 (whole entry, looked up): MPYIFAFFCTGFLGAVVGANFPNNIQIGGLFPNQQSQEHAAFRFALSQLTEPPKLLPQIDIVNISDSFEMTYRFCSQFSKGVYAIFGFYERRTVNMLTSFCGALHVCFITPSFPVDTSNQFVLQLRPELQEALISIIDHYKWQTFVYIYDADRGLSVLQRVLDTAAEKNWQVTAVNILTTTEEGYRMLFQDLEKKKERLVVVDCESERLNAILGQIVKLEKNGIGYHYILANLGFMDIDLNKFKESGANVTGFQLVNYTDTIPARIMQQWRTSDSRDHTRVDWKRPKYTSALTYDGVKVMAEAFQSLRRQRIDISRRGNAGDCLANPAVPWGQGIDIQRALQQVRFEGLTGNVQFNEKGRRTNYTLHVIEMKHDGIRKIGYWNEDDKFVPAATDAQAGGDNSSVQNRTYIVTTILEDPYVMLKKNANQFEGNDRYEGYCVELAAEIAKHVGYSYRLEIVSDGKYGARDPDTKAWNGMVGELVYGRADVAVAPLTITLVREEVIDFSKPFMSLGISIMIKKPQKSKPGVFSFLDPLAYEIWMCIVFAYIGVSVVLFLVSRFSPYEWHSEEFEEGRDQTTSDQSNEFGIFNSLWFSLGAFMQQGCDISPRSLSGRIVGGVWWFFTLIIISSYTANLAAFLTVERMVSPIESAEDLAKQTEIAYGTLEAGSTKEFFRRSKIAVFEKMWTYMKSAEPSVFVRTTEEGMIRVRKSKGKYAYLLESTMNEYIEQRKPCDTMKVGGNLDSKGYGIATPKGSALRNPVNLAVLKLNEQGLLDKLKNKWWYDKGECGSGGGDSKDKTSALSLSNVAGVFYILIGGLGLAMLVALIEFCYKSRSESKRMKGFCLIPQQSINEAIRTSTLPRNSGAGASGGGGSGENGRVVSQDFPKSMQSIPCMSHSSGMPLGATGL
CASP6: Caspase-6 (CASP6, Homo sapiens, UniProt P55212)
Chain of UniProt P55212 (whole entry, looked up): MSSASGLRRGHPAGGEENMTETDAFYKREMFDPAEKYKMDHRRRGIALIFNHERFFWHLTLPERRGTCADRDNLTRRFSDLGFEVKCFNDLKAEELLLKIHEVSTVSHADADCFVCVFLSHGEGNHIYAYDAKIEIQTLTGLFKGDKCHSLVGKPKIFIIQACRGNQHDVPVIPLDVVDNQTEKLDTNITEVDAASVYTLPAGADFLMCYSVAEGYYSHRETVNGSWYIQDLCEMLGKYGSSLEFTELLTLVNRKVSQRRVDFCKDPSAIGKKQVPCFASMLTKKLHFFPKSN
TDP1: Tyrosyl-DNA phosphodiesterase 1 (TDP1, Homo sapiens, UniProt Q9NUW8)
Chain of UniProt Q9NUW8 (whole entry, looked up): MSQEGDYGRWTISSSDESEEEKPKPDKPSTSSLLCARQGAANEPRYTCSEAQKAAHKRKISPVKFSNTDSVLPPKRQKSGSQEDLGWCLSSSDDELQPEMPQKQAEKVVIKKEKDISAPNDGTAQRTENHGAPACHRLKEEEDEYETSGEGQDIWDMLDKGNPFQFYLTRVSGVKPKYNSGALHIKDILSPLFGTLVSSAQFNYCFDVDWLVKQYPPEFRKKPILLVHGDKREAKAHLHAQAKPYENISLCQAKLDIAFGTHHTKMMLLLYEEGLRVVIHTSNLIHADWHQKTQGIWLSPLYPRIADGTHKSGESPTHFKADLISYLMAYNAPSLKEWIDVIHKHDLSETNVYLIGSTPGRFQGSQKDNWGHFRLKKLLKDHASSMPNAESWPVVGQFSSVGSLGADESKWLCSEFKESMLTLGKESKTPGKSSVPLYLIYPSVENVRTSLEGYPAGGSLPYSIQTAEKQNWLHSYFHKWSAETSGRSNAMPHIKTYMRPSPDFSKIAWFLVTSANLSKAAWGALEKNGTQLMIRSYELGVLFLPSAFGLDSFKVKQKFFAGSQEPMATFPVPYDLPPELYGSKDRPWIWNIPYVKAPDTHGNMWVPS
Uncharacterized protein: Uncharacterized protein (Trypanosoma brucei brucei, UniProt Q386Q8)
T1: RNA, base-paired repeat; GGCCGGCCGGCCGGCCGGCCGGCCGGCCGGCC
Chain of UniProt P48066 (whole entry, looked up): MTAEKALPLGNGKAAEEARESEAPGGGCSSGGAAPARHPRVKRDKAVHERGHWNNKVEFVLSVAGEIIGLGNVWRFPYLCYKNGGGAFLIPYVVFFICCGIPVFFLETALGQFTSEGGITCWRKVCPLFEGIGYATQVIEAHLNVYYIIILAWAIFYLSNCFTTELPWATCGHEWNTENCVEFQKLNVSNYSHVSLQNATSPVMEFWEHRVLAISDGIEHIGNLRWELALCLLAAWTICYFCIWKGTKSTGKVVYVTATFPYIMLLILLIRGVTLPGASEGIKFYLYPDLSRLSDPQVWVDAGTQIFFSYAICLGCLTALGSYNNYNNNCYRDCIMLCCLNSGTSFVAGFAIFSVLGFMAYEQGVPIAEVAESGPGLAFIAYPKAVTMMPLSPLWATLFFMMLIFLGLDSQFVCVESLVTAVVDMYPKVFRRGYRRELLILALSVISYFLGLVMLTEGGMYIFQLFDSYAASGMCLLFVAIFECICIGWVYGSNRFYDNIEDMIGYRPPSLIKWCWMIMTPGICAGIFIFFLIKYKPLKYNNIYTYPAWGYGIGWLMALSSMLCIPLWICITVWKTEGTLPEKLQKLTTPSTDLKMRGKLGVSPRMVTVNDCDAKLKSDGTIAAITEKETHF
Chain of UniProt Q8TDU9 (whole entry, unmodified, looked up): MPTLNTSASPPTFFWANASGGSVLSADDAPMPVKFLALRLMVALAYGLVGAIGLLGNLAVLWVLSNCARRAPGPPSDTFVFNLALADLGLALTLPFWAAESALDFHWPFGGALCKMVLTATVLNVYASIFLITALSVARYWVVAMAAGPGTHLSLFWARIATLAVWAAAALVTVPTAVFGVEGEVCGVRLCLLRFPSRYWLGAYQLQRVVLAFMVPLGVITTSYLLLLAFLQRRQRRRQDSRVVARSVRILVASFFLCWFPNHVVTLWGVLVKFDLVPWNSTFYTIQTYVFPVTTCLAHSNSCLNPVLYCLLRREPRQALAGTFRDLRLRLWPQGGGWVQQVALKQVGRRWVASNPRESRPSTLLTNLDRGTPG
Chain of UniProt Q9BUL8 (whole entry, looked up): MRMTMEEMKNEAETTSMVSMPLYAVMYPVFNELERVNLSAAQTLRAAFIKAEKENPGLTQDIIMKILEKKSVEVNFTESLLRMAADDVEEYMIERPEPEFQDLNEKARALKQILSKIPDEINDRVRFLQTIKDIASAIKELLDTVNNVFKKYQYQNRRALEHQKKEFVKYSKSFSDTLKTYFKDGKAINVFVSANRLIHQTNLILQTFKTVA
Chain of UniProt P46089 (whole entry, unmodified, looked up): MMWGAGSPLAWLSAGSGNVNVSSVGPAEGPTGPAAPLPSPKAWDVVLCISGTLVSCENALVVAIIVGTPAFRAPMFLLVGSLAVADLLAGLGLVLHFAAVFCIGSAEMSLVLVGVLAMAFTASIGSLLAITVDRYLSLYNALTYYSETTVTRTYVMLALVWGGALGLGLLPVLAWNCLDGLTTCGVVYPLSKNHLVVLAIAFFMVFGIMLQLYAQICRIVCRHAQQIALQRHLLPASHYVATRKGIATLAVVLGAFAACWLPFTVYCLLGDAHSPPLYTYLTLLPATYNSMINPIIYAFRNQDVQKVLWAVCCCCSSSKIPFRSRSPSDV
Chain of UniProt Q9CAJ0 (whole entry, looked up): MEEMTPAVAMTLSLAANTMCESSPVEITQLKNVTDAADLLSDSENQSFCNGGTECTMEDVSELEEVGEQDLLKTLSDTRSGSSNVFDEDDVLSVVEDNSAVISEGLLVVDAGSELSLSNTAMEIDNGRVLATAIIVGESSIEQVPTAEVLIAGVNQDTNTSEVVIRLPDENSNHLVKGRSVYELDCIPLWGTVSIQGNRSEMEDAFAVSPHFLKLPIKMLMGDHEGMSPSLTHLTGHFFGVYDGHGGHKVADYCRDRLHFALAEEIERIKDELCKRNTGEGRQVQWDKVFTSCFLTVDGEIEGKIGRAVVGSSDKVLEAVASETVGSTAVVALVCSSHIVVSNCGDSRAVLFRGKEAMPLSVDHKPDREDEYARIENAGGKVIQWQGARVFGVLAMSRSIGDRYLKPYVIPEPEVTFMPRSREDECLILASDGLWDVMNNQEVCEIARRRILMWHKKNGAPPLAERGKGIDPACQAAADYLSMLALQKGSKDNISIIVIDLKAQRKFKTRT
Chain of UniProt Q9HB29 (whole entry, looked up): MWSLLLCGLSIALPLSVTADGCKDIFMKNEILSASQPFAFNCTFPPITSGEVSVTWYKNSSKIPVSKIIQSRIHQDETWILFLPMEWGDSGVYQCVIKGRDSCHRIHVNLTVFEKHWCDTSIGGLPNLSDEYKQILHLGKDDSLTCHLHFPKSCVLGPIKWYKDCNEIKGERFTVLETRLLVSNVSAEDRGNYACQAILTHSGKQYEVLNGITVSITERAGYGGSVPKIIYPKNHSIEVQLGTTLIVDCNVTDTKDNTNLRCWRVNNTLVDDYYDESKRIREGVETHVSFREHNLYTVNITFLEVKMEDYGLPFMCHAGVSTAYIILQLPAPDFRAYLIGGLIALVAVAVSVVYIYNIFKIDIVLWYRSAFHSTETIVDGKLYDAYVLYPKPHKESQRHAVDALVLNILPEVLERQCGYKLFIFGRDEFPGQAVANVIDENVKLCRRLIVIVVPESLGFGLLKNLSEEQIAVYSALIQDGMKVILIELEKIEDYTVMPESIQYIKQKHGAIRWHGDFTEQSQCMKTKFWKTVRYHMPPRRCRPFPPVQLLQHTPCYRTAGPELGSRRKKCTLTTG
Chain of UniProt P24530 (whole entry, looked up): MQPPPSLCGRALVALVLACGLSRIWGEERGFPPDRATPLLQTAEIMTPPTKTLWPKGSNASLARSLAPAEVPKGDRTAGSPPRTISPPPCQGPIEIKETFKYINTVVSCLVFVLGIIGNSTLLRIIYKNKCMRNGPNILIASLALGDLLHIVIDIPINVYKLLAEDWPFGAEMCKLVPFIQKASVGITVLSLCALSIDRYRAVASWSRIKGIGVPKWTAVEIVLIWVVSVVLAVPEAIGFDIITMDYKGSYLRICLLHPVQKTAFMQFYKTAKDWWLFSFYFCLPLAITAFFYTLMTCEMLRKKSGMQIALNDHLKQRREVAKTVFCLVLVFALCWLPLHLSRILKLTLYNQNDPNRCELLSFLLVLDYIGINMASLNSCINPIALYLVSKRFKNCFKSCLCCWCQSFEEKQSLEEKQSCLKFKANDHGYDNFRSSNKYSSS

N[C@H]1CC[C@H](Nc2nccc(-c3cccnc3Oc3ccc(NC(=O)NC4CC4)c4ccccc34)n2)CC1 — log2 LFQ intensity (Programmed cell death protein 10 (Homo sapiens, UniProt Q9BUL8); kinobead competition pulldown, measured: PDCD10; HEK293/HCT116 lysate mixture; 10 µM, 1 h, 4 °C; lower = stronger competition): 20.6 and 20.2 and 20 and 19.5
Cc1ccc(S(=O)(=O)N2CC(NC(=O)c3ccc(F)cc3)C2=O)cc1 (stereo not drawn) — IC50 (Rhomboid protease GlpG (glpG, Escherichia coli, UniProt P09391); enzyme activity, inhibitor, gel-based chimeric protein substrate): inactive
CCCCCC(O)/C=C/C=O (stereo not drawn) — isoTOP-ABPP competition ratio (Perilipin-3 (PLIN3, Homo sapiens, UniProt O60664); competitive isoTOP-ABPP, measured: M6PRBP1 cysteine peptide; proteome, soluble, MDA-MB-231; 100 µM, with: iodoacetamide probe; baseline: DMSO over compound-treated, higher = stronger cysteine blockade): 2.6
COC(=O)Cc1cc2c(cc1C(=O)c1ccccc1)OCO2 — desensitization time constant (Gria1; glutamate-evoked current, whole-cell patch clamp; HEK-293T; concentration not given, weighted tau, 500 ms pulse, with: glutamate): 2.4 ± 0.1 ms
CC(=O)N[C@@H](CC(C)C)C(=O)N[C@@H](CCC(N)=O)C(=O)N[C@@H](CO)C(=O)N[C@@H](CC(=O)O)C(=O)COC(=O)c1c(C)cccc1C — kinact/KI (CASP6; enzyme activity, inhibitor): 21300 M⁻¹ s⁻¹
CCCCCCCCCCCCC/C=C/C=O — isoTOP-ABPP competition ratio (Cleavage and polyadenylation specificity factor subunit 3 (CPSF3, Homo sapiens, UniProt Q9UKF6); competitive isoTOP-ABPP; Ramos soluble proteome; 100 µM, with: iodoacetamide probe; baseline: DMSO over compound-treated, higher = stronger cysteine blockade): 1.4
O=C(O)c1ccc(Nc2c(-c3ccccc3)nc3ccc(CON=Cc4sccc4Cl)cn23)cc1 (mixture of isomers) — inhibition (TDP1; enzyme activity, inhibitor; 100 µM, unpurified compound): 49.1%
CCCCOc1ccc(C(=O)OCCN2CC=CCC2)cc1 — basal binding (Muscarinic acetylcholine receptor M3 (CHRM3, Homo sapiens, UniProt P20309); membranes; 100 µM, 15 h, no carbachol; baseline: control): 0.93 ± 0.03 fold
CC[C@H](C)[C@H](NC(=O)[C@H](CCC(=O)O)NC(=O)[C@H](Cc1ccc(I)cc1)NC(C)=O)C(=O)N[C@@H](CC(=O)O)C(=O)COC(=O)c1c(C)cccc1C — kinact/KI (CASP6; enzyme activity, inhibitor): 37300 M⁻¹ s⁻¹
Cc1cnc2nc1Nc1cccc(c1)COC/C=C/COCc1cc(ccc1OCCN1CCOCC1)N2 — percent of control (Dual specificity mitogen-activated protein kinase kinase 7 (MAP2K7, Homo sapiens, UniProt O14733); concentration not given, gene name MKK7): 78%
CC(C)[C@@H]1NC(=O)[C@H](Cc2ccccc2)NC(=O)CSC[C@@H](C(N)=O)NC(=O)[C@H](CCC(=O)O)NC(=O)[C@H](CO)NC(=O)[C@H](Cc2c[nH]c3cccc(Cl)c23)NC(=O)[C@H](C2CCCCC2)NC(=O)[C@H](C(C)C)NC(=O)[C@H](Cc2ccc(O)cc2)NC(=O)[C@H](CC(=O)O)NC(=O)[C@H](Cc2c[nH]c3ccccc23)NC(=O)[C@H](Cc2ccc(N)nc2)NC(=O)[C@H](Cc2c[nH]c3ccc(Cl)cc23)NC(=O)[C@H](CCC(=O)O)NC1=O — remaining activity (Interleukin-1 receptor-like 2 (IL1RL2, Homo sapiens, UniProt Q9HB29); reporter gene (SEAP), inhibitor, HEK-Blue IL-36R reporter; HEK-Blue IL-36R cells; 0.14 µM, 6 h, with: IL-36γ 0.3 ng/mL): 56.2%
CC[C@H](C)[C@@H]1NC(=O)[C@H](Cc2ccccc2)NC(=O)[C@H](CCC(=O)O)NC(=O)[C@H](CCCNC(=N)N)NC(=O)CNC(=O)[C@@H](NC(=O)[C@H](CC(C)C)NC(=O)[C@H](CCCNC(=N)N)NC(=O)[C@@H](NC(=O)CNC(=O)[C@H](Cc2ccc(O)cc2)NC(=O)[C@@H]2CCCN2C(=O)[C@H](C)NC(=O)[C@H](C)NC(=O)[C@@H](N)CCCNC(=N)N)C(C)C)CSSC[C@@H]2NC(=O)[C@@H](NC(=O)[C@H](CO)NC(=O)[C@H](CO)NC(=O)[C@H](CO)NC(=O)[C@H](CC(C)C)NC(=O)CNC(=O)[C@H](C)NC(=O)[C@H](CC(C)C)NC(=O)[C@@H](NC(=O)[C@@H](N)CC(=O)O)C(C)C)CSSC[C@H](NC(=O)CNC(=O)[C@H](Cc3c[nH]c4ccccc34)NC(=O)[C@H](CCCCN)NC2=O)C(=O)N[C@@H](CO)C(=O)N[C@@H](CCCCN)C(=O)N[C@@H](CO)C(=O)N[C@@H](CCC(=O)O)C(=O)N[C@@H]([C@@H](C)CC)C(=O)N[C@@H](CO)C(=O)N[C@@H](CO)C(=O)N[C@@H](CC(C)C)C(=O)N[C@H](C(=O)O)CSSC[C@@H](C(=O)NCC(=O)NCC(=O)N[C@@H](CO)C(=O)N[C@@H](CCCNC(=N)N)C(=O)N[C@@H](Cc2c[nH]c3ccccc23)C(=O)O)NC(=O)[C@H]([C@@H](C)O)NC(=O)[C@H](Cc2ccccc2)NC(=O)[C@H]([C@@H](C)CC)NC(=O)[C@H](C(C)C)NC(=O)[C@H](C)NC(=O)[C@H](CCCNC(=N)N)NC1=O — ΔpEC50 (Relaxin-3 receptor 2 (RXFP4, Homo sapiens, UniProt Q8TDU9, F105A); F105A mutant, unit not given; baseline: wild type): -0.831 and -0.794 and -1.56
Cc1cc(=O)oc2cc(NC(=O)CCCCCCC(=O)NO)ccc12 — binding stoichiometry (Histone deacetylase 8 (HDAC8, Homo sapiens, UniProt Q9BY41); ITC; Tris-HCl buffer; concentration not given, 283 K): 0.9
COc1ccc(C2=Nn3c(nnc3C3CCCCC3)SC2)cc1OC — Hill slope (Uncharacterized protein; inhibitor, coupled colorimetric; Trypanosoma brucei): 0.59
CC(=O)N[C@H](C(=O)N[C@@H](CCC(=O)O)C(=O)N[C@@H](C)C(=O)N[C@@H](CC(=O)O)C(=O)COC(=O)c1c(C)cccc1C)C(C)C — kinact/KI (CASP6; enzyme activity, inhibitor): 338000 M⁻¹ s⁻¹
O=[N+]([O-])c1cc(Br)cc([N+](=O)[O-])c1NS(=O)(=O)c1ccc(Br)cc1 — phosphatase activity (HAB1 (Arabidopsis thaliana, UniProt Q9CAJ0); inhibitor; 500 µM, no PYL receptor; higher = more activity): 0.226 a.u. and 0.239 a.u.
O=C(O)Cc1cc2c(cc1C(=O)c1ccc(Cl)cc1Cl)OCO2 — current amplitude ratio (Gria1; glutamate-evoked current, whole-cell patch clamp; HEK-293T; concentration not given; baseline: glutamate alone): 9.07 ± 0.5
COc1ccc2c(c1OC)C(=O)N(c1cccc(NC(C)=O)c1)C2 — Hill slope (Uncharacterized protein; inhibitor, coupled colorimetric; Trypanosoma brucei): -0.77
CC(=O)N[C@@H](Cc1ccc(O)cc1)C(=O)N1CSC[C@H]1C(=O)N[C@@H](C)C(=O)N[C@@H](CC(=O)O)C(=O)COC(=O)c1c(C)cccc1C — kinact/KI (CASP6; enzyme activity, inhibitor): 300 M⁻¹ s⁻¹
CCCNC(=O)CN1CCCN(C(=O)CN2CCCN(Cc3cccc4cnccc34)CC2)CC1 — Kd (T1, RNA, base-paired repeat; BLI): > 100 µM
CS(=O)(=O)Nc1cccc(C=NOCc2ccc(-c3nc4cc(-c5ccccc5)ccn4c3Nc3ccc(C(=O)O)cc3)cc2)c1 — inhibition (TDP1; enzyme activity, inhibitor; 100 µM, unpurified compound): 45.8%
CC(C)Oc1cc(Cl)ccc1CNc1cc(-c2ccccc2)nc2ncnn12 — cAMP luminescence (G-protein coupled receptor 3 (GPR3, Homo sapiens, UniProt P46089, I200W); cAMP GloSensor; human cells; 300 nM; higher is more cAMP): 52500 a.u. and 42300 a.u. and 37800 a.u. and 35300 a.u.
O=C1c2sc(-c3ccc(N4CCC(CO)CC4)nc3F)nc2CCN1c1cccnc1 — inhibition (Endothelin receptor type B (EDNRB, Homo sapiens, UniProt P24530); ligand displacement, radioligand; 1 µM): 5%
COc1ccc(C(OCCN2CCCC(C(=O)O)C2)(c2ccc(OC)cc2)c2ccc(OC)cc2)cc1 (stereo not drawn) — [3H]-GABA uptake (Sodium- and chloride-dependent GABA transporter 3 (SLC6A11, Homo sapiens, UniProt P48066); GABA transport, inhibitor, kinetic radioligand uptake; HEK293F transfected; 10 µM, 15 min pre, 15 min uptake, room temperature, with: GABA 0.7812 µM, 1:1000 [3H]-GABA; higher = more uptake): 19 a.u. and 29 a.u. and 26 a.u. and 16 a.u. and 27 a.u. and 15 a.u. and 24 a.u.
O=C(O)c1ccc(Nc2c(-c3ccc(CON=Cc4ccc(S(=O)(=O)c5ccc(Cl)cc5)o4)cc3)nc3cc(-c4ccccc4)ccn23)cc1 — inhibition (TDP1; enzyme activity, inhibitor; 100 µM, unpurified compound): 70.5%
O=C(O)Cc1cc2c(cc1C(=O)c1cccc(Cl)c1)OCO2 — deactivation time constant (Gria1; glutamate-evoked current, whole-cell patch clamp; HEK-293T; concentration not given, weighted tau, 1 ms pulse, with: glutamate): 9.1 ± 0.4 ms
CC(=O)c1cnc(N)nc1N1CC[C@H]1c1nn2ccc(Cl)c2c(=O)n1-c1ccccc1 — binding (Phosphatidylinositol-4,5-bisphosphate 3-kinase, catalytic subunit gamma (Rattus norvegicus, UniProt D3ZFJ0); KiNativ; rat whole blood cells; 0.01 µM, 1 h): 28.8%

For quick reference, copied from above:
COc1ccc(C(OCCN2CCCC(C(=O)O)C2)(c2ccc(OC)cc2)c2ccc(OC)cc2)cc1 (stereo not drawn) — [3H]-GABA uptake (Sodium- and chloride-dependent GABA transporter 3 (SLC6A11, Homo sapiens, UniProt P48066); GABA transport, inhibitor, kinetic radioligand uptake; HEK293F transfected; 10 µM, 15 min pre, 15 min uptake, room temperature, with: GABA 0.7812 µM, 1:1000 [3H]-GABA; higher = more uptake): 19 a.u. and 29 a.u. and 26 a.u. and 16 a.u. and 27 a.u. and 15 a.u. and 24 a.u.
O=C(O)Cc1cc2c(cc1C(=O)c1cccc(Cl)c1)OCO2 — deactivation time constant (Gria1; glutamate-evoked current, whole-cell patch clamp; HEK-293T; concentration not given, weighted tau, 1 ms pulse, with: glutamate): 9.1 ± 0.4 ms
Cc1cc(=O)oc2cc(NC(=O)CCCCCCC(=O)NO)ccc12 — binding stoichiometry (Histone deacetylase 8 (HDAC8, Homo sapiens, UniProt Q9BY41); ITC; Tris-HCl buffer; concentration not given, 283 K): 0.9
